Results collected from several papers.
Every numbered part comes from another study and shows a few of its results, in no order. Substitutions count along the parent as printed.

Set 1
Target: RING finger protein unkempt homolog, zinc fingers 1-6, SBP tag (UNK, Homo sapiens, UniProt Q9C0B0, residues 30-357)
Chain of UniProt Q9C0B0 (30-357, looked up): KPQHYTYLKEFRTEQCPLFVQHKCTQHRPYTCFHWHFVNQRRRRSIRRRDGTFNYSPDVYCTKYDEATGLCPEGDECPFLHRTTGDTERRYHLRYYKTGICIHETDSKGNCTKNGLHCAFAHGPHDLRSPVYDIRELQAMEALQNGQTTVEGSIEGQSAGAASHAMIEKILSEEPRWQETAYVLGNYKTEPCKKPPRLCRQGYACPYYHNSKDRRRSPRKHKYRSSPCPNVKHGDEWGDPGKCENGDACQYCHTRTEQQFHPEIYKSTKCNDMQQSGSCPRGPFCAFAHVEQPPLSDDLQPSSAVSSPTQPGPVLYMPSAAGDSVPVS
Method: RNA Bind-n-Seq
Molecule type: RNA
Matrix: in vitro
Concentration: 100 nM
Notes: RNA with constant flanks, vertebrate orthologous sites, ends assumed
Baseline: input RNA pool
Reading: higher = stronger binding
All sequences stand within: GGGAGUUCUACAGUCCGACGAUC … CAACAGAGGAUUGAGCAUCA
| Strand | bound/input enrichment [ratio] |
| --- | --- |
| GCAUCACGGGUUACUCUUGUUUCUGUAGCAGAUAGAAAAUUUUGCAACAAAUGUAUACAUCUCGUUGAGCUGAAUAUAUUUUUAUUAGCCUGUAAAUAAAUAUACUCUUCUUCAUUGCAG | 0.718 |
| CUGCUCUACGGGCCCCGCAGAGUGGAGAUCAUGGAAGAGGAAAGUGAACAGUAAUCUCCGUAGUAUUUAUGCUUAGGUGUGGAAUGAAUGUUACUUGUUGAUCACUUGUAUAAUCCAGAG | 0.51 |
| AACUGUUGUGUGAAAUGUCUAUCCAGAUAAGUGUCACCUUAUAAAUAUUAUCAAAUAAUUUAGCUAGAUUCUUCUUAAGUAAUAAAUUAUUUGUCAAGCAUUUAAAGUGAAUUUGAAAUG | 0.242 |
| UCAUCUCUUUUUAUAUGUCCAAAAAUGGCUUUGAAUUUGUAAACAGUUGCUAGUGUCACUUAGCCCUACCCUGAUGAAGUAUUAUUGCUGUUGAUCACUAACAGACACCUGUCUGUUACU | 0.526 |
| UCCAGGUAGGGGGUAACCAUUAACUUUUUUUAAUGAAGAAAUGAAAUGCUGAAAAUCAUAUGUUACUAAGUUUAGUUGGAUAAUUUAUACAAGCCUCUUUUAGGUAAUUCUAAAACUGAA | 0.807 |
| CGCCUCCGGUGACAUUUGGCCUGGCCUGUCGGCCUACGACAAUAGUCCCAGAUCACCCCACAGUCCUUCUAUCGCCACACCGCCUAGCCAGAGUUCCUCCUGCUCCGACGCGCCUUUACU | 0.662 |
| GGGUUUGGGGUAGAGGGGAGGGAGGGGGCAGGACAGUAUGGAAUCUCAAAGGCAUUGGUUAGGAACCUCUAGAGAUGGUUGGGGGUAAAGAUGAGUGUCACCCCUUCCCUCAGUCAUGUA | 0.456 |
| UAUUGUAUGUAGAGAAAAUUUUCCAUUGACUUCAUUAUGAAAUCCCCCUAGCAGUUAAUUUAGCAUCUUAAUUUUUCUAAUUAAAGCGCAUUGUAUUAGUCAUUUUUAGCUCAUAAUUAA | 2.15 |
| AGUAGAUGUAUACGAAUAUUGAAGUUACAGAGGAUAUCCAAGGUGGUGAUAAAGUGUGUGUUGGUAGUUACUAAAAGAACUUUAGCUGUUACUGCCUUGUAUUUCUAUCCCUUGUUUUAG | 0.5 |
| UUCUCAACUUGUUCUAGCUGGUGAUCCUUCAAAGUUGGGUCAGGCAGUAGUGCUAGGUACUAGAAAUUUUCAUUUCCCUAUUGCCAUUGAUCAGAGAAGACAGAUAUUAAAAAUAGAAAU | 0.524 |
| AAAUUUAUUUCAUGCCCUGGACUCCCUACCGCACUGAUACUUUAAUAGAGUAUGCUUCUAUAGAAGAUUUCCAAAACAGUCGCCAGACAACAACAUACAAACUUCCAAACCGAGUAGAUG | 1.07 |

Set 2
Target: CCNF, cyclin fold, Cln2 fusion (human)
Method: yeast growth competition, sequencing
Matrix: yeast
Notes: strong parent motif
Baseline: not given
Reading: higher = stronger binding
Starting sequence: E2F1 docking peptide (human); PPVKRRLDFETDH
| Variant | normalised enrichment score |
| --- | --- |
| PPVKRRWDFETDH [L7W] | 0.565 |
| PPVKRRLDHETDH [F9H] | 0.97 |
| PPVKRLLDFETDH [R6L] | 6.06 |
| PPVKRRLDFEADH [T11A] | 7 |
| PPVKGRLDFETDH [R5G] | 0.596 |
| PPVKRRLDSETDH [F9S] | 1.16 |
| PPVKRRLDFETNH [D12N] | 7.67 |
| PPVKRRLDGETDH [F9G] | 0.133 |
| PEVKRRLDFETDH [P2E] | 7.41 |
| PPVKRRLDFMTDH [E10M] | 8.07 |
| PPVKRRLDFEWDH [T11W] | 7.95 |
| PSVKRRLDFETDH [P2S] | 7.8 |

Set 3
Target: ABI1, truncated, D143A, DHFR fusion (Arabidopsis thaliana)
Method: DHFR PCA, deep sequencing
Matrix: yeast
Notes: methotrexate growth selection, single substitutions
Together with: (+)-ABA 2500 µM
Baseline: wild-type fitted maximum
Reading: higher = stronger binding
Starting sequence: PYL1, truncated, DHFR fusion (Arabidopsis thaliana); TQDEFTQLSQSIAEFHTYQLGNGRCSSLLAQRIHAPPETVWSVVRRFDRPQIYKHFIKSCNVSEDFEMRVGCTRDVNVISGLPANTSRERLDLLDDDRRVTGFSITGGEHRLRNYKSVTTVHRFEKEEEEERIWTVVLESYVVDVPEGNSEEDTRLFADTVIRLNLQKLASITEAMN; partner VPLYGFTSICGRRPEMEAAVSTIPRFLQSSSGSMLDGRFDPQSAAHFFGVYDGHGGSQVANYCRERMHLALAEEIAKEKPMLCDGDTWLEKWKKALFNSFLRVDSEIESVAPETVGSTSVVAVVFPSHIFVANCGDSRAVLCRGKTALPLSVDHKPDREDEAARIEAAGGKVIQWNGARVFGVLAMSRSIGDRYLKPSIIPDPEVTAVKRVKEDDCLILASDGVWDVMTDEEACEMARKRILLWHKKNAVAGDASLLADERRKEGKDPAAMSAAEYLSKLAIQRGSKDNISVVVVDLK
| Variant | relative binding score [%] |
| --- | --- |
| L164A | 99.5 |
| C60D | 32.9 |
| M176T | 98.3 |
| E38H | 89.7 |
| V78N | 74.7 |
| R98P | 48.8 |
| T154P | 55.4 |
| E89H | 26.4 |
| V143C | 95.2 |
| G108R | 70.3 |
| I79F | 99.1 |
| Y53K | 51 |
| E38Q | 86.3 |
| L138Y | 104 |
| L166E | 4.58 |

Single results of other studies
| Substance | target | test | test system | conditions | scale | endpoint | value |
| --- | --- | --- | --- | --- | --- | --- | --- |
| PhoQ, residues 284 288 289 292 302 303 ASTSDA | PhoP, residues 12 14 15 18 19 LHATL (Escherichia coli, UniProt P23836) | Sort-seq, item: YFP reporter | E. coli | PhoQ-PhoP variant library, together with: 10 µM Mg2+ | baseline: high Mg2+ state, higher = stronger signaling | fold induction | 23.6 |

Excerpt of the above (set 1):
| Strand | bound/input enrichment [ratio] |
| --- | --- |
| CGCCUCCGGUGACAUUUGGCCUGGCCUGUCGGCCUACGACAAUAGUCCCAGAUCACCCCACAGUCCUUCUAUCGCCACACCGCCUAGCCAGAGUUCCUCCUGCUCCGACGCGCCUUUACU | 0.662 |
| GGGUUUGGGGUAGAGGGGAGGGAGGGGGCAGGACAGUAUGGAAUCUCAAAGGCAUUGGUUAGGAACCUCUAGAGAUGGUUGGGGGUAAAGAUGAGUGUCACCCCUUCCCUCAGUCAUGUA | 0.456 |
| UAUUGUAUGUAGAGAAAAUUUUCCAUUGACUUCAUUAUGAAAUCCCCCUAGCAGUUAAUUUAGCAUCUUAAUUUUUCUAAUUAAAGCGCAUUGUAUUAGUCAUUUUUAGCUCAUAAUUAA | 2.15 |
| AGUAGAUGUAUACGAAUAUUGAAGUUACAGAGGAUAUCCAAGGUGGUGAUAAAGUGUGUGUUGGUAGUUACUAAAAGAACUUUAGCUGUUACUGCCUUGUAUUUCUAUCCCUUGUUUUAG | 0.5 |
